Measurements collected from several papers.
Every numbered part comes from another study and shows a few of its results, in no order. Positions count from the first letter of the parent shown.

Set 1
Target: Prothrombin, mature alpha-thrombin (F2, Homo sapiens, UniProt P00734)
Method: aptamer microarray, sandwich
Molecule type: DNA with 2'F-ANA
Matrix: in vitro
Concentration: 200 nM
Notes: whole 15-mer aptamer, many near background
Added: Cy3 exosite-II aptamer, 400 nM
Reading: higher = stronger binding
Strand: GGTTGGTGTGGTTGG
Modification	mean fluorescence intensity
2'F-ANA at 1 4 5 6 8 9 10 12 13 14	52.1 a.u.
2'F-ANA at 1 5 9 10 11	87.7 a.u.
2'F-ANA at 1 3 5 8 10 12 13	46.8 a.u.
2'F-ANA at 1 3 4 5 6 8 9 11 13	100 a.u.
2'F-ANA at 2 4 5 7 8 10 12 13 14 15	46.5 a.u.
2'F-ANA at 1 2 4 6 7 8 9 12 13 14	57.1 a.u.
2'F-ANA at 1 4 6 8 14 15	54.3 a.u.
2'F-ANA at 1 4 9 11 14	46.7 a.u.
2'F-ANA at 1 5 8 10 11 13 14	46.2 a.u.
2'F-ANA at 1 3 9 12 13 15	432 a.u.
2'F-ANA at 1 5 6 7 9 10 11 12 13	46.3 a.u.
2'F-ANA at 2 3 4 6 8 10 13	193 a.u.
2'F-ANA at 2 4 5 8 9 10 11 14	45.9 a.u.
2'F-ANA at 2 4 6 7 8 9 12 15	522 a.u.
2'F-ANA at 1 6 8 9 10 12 14 15	54.7 a.u.
2'F-ANA at 4 5 6 7 8 10 12	49.8 a.u.

Set 2
Target: Interferon regulatory factor 5, full length, phosphomimetic (IRF5, Homo sapiens, UniProt Q13568-2, residues 1-514, S451D/S453D/S456D/S462D)
Method: protein-binding microarray
Molecule type: double-stranded DNA, one strand shown
Matrix: in vitro
Concentration: 940 nM top
Notes: 60-bp whole probe
Added: salmon DNA 0.4 mg/ml
Baseline: random background probes
Reading: higher = stronger binding
Shared flanks, not repeated: GCCTAGCAC … GTCTTGATTCGCTTGACGCTGCTG
Strand	fitted relative affinity
TGAGATTTCGGGACTGGATTAGTGCTA	0.329 z-score
GACGATCTAAGACTGGAGACGTGCTAG	-0.529 z-score
CCAAGGTTCAAGTTTACCCATGTGCTA	0.0257 z-score
TTAGATTTCAGTTCAGATTAGTGCTAG	0.816 z-score
TGTGGTCTGTTTCTGATATGGTGCTAG	0.466 z-score
CTTTGCTCATTTTTCAGGGAGTGCTAG	0.641 z-score
GACGGTTGCCTTTTCCTGACGTGCTAG	0.317 z-score
TTAGAACTGGGGGATCGATTAGTGCTA	1.44 z-score
TCATTTCTCCTTTGTAAACTGTGCTAG	1.18 z-score
GACCATTTCAGTTTCGAGACGTGCTAG	5.26 z-score
TTAGGTTTCGGGTATCGGTCAGTGCTA	11.2 z-score
GACGTTTTCGGACTGGGGACGTGCTAG	0.684 z-score
GCACCTCTAGACTCTAAATTCGTGCTA	-0.0296 z-score
GACGCTATCAGACTGGAGACGTGCTAG	-0.109 z-score
TTAGGTATCGGTCTCGGGTAGTGCTAG	9.03 z-score
GACGGTCTCGTTTTCGGGACGTGCTAG	2.09 z-score

Set 3
Target: CCNE2, cyclin fold, Cln2 fusion (human)
Method: yeast growth competition, sequencing
Matrix: yeast
Notes: weak parent motif
Baseline: not given
Reading: higher = stronger binding
Starting sequence: CDC42EP1 docking peptide (human); SLVVGKLSFDSSP
Change	normalised enrichment score
S8A	-0.155
S1A	0.14
G5A	-0.0785
F9A	-0.356
V4A	0.18
V3A	-0.22
S12A	0.157

Set 4
Target: Fragile X messenger ribonucleoprotein 1, C-terminal low-complexity region (Fmr1, Mus musculus, UniProt P35922)
Method: RNA Bind-n-Seq
Molecule type: RNA
Matrix: in vitro
Concentration: 200 nM
Notes: whole 134-nt RNA, ends assumed
Added: 150 mM LiCl
Baseline: input library
Reading: higher = stronger binding
Library: 7-deaza-guanosine replaces G
Shared flanks, not repeated: GGGAGUUCUACAGUCCGACGAUC … UGGAAUUCUCGGGUGUCAAGG
Strand	log2 enrichment
UAACUUUAGAGGAGGAUCUGAUGGAUAUGGCAGUGGACGUGGAAUUGGGGAUGGCUAUAAUGGGUAUGGAGGAGGACCUGGAGGUGGCAA	-0.261
UCCUGUGCUACACAUCGUAUGUACCGAAUCGGGAAAAAAAGGGUUUUUGGGUUUUUGGGAAAGUAUUAUGUUACGCCGUUCGGAUCUGCA	-2.31
GUCCUGUGCUACACAUCGUAUGUACCGAAUCAAAUUUUUUUAAACCCCCAAACCCAAAAAAGUAUUAUGUUACGCCGUUCGGAUCUGCAC	1.16
AAGUCCUGUGCUACACAUCGUAUGUACCGAAUCGGGUUUGGGUUUUUUUGGGAGGGAAAGUAUUAUGUUACGCCGUUCGGAUCUGCACUU	-0.177
UCCUGUGCUACACAUCGUAUGUACCGAAUCGGGGAAAGGGGAAAAAAAGGGGUUUGGGGAAAGUAUUAUGUUACGCCGUUCGGAUCUGCA	-0.414
UCAAUGCCGGCUAUGCCCUGGCCCCAGCCACCAGUGCCAACGACAGCGAGCAGCAGAGCCUGUCCAGCGAUGCAGACACCCUGUCCCUCA	0.257
UAACUUUAGAGGAGGAUCUGAUGGAUAUGGCAGUGGACGUGGAUUUGGGGAUGGCUAUAAUGGGUAUGGAGGAGGACCUGGAGGUGGCAG	0.478
CCUCAAGUCCUGUGCUACACAUCGUAUGUACCGAAUCGGGCGGCGGGGCGGGGAAAGUAUUAUGUUACGCCGUUCGGAUCUGCACUUCCA	-0.441
UGUGCUACACAUCGUAUGUACCGAAUCGGGGAAAAAAAGGGGAAAAAGGGGUUUUUUUGGGGAAAGUAUUAUGUUACGCCGUUCGGAUCU	-0.931
ACCAUGCAGGUGGGCAUCUUUGGGAAGUGGGGCAAGGGGGGGAAAGGGAGGGGGGUAACACUUUGGGAACAGGUGGUCCCAGGUCGUUUC	1.29
UAACUUUAGAGGAGGAUCUGAUGGAUAUGGCAGCGGACGUGGAUUUGGGGAUGGCUAUAAUGGGUAUGGAGGAGGACCUGGAGGUGGCAA	0.236

Set 5
Target: RNA binding protein fox-1 homolog 2, RRM domain, GST-SBP tag (RBFOX2, Homo sapiens, UniProt O43251-10, residues 100-194)
Method: RNA Bind-n-Seq
Molecule type: RNA
Matrix: in vitro
Concentration: 365 nM
Notes: natural RNA segment, single round, ends assumed
Baseline: no-protein control
Reading: higher = stronger binding
Shared flanks, not repeated: GGGAGUUCUACAGUCCGACGAUC … UGGAAUUCUCGGGUGCCAA
Target sequence (chain): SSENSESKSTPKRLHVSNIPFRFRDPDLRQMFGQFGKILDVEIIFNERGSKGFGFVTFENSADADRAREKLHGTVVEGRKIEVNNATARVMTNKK
Strand	RBNS enrichment (R)
GGUGGCCGCAUGCCGGCGCGUGUCUGUUUCUGUGCGGCGGCUCAGGGUGGCGCGGCUGCUGCUCACUGUGCUGCUGGGACCCAAGAGUGGGGCGUCGCCCCUGCUGGCCG	0.952
GGUGACUCUGUCCAGCUCCCGCUGUGGCCGCACGCCUCUCCCUGCACUCCCUCCUGGAGCUCUGUGGGUCUCUGGAAGAGGAACCAGGAGAAGGGCUGGGGCCGGGGCUG	0.282
AUCUCAAUGGGCCUAUACAGGAAAGGCUGUUAAUUUAAGUCUGUCGUUACUUUCUGGCGAAUUUAACAUAAGCCUUGGGCACCUGUCACAAUUUUCUAAAGAUGGUUUGG	0.543
ACCAAAGCUGAGGUCCCCUUGAUCAUGAACUCCAUAAAAUCCUUUUCUGACCACGCUCAAUGUGGAAGGCUGGAAGUACACCUUGUUGGAGGCUUCAGUGACGACAGGCA	0.423
UGUGUGUUUUUGGUUAAGUUUCUGGAAGAAUACAAUGCUUUUAUAUUGGAAGUAUAAGUUUUGAGUGGCAUUGUUGCCUUCUAACAAGCUCUCUGGGACUUUUAAAGUUU	0.633
UAGAGAGACUGUACUUUUUUUCUAGAAAAAAAUAUUGUGAAACAGUUUUCUGUAGUGAUAUUGUUGAAUAUGACAGGUAAAGCAACUGUGAGGGCAAACUAGAAUUAGUA	1.3
AAGAAUUUCUGAACUAACACUUGAAAUCACAUUUUAUAAAGAUUGUUGGUACUCAGAGUUGUAUUUGCAGCAGAAAAUGCAGAAUAACCCAGAAAUGGAGCCCGGAGCCC	0.286
CAAAUACUAUUACUUCUCUGAGCCUCCGUUACGCCGUCUGUAAAAAGGGAGGUGAAAAUACCUACCUCACAGAACUGUUGGCUCAGAUGAGACGCUGUAUGUGUAAACAU	0.411
AGAAAUGGAAUGAAUCUCCAAGGCUUUUAGGACUGUCUGAAAAUUUGAGGCUGGGUGAAGUUAAAACACCUUUCCUUAUGUCUCCUGACCUGAAAUUGUAUAGUGUUGAU	1.02
AAAUCACUGCCUCAUUCUUAUUUCAAGAUGAAUUUCUAUACAGACUAGAUGUUUUUCUGAAGAUCAAUUAGACAUUUUGAAAAUGAUUUAAAGUGUUUUCCUUAAUGUUC	0.383
GCCAUUCCAUUCCCAGGGAGUGAGAAGUAUUGUGGGUAGAGUUGCCAAAGAUGGCUGGACCAUGGAAGAGAGUACCCUAUGAUGGGUUUCAACCUUGACUCGUAAAUACU	0.412
UGUAACCUCAACUUCCAAAGUUUAUAUUUUCUUGAAAUGAUGGAUCUAUUGCUCAACAGUCCCUGUCAUCCUUAAGUGACUUCUGGGUUUCCCACAAAUUCCUCACUUUU	0.507

For quick reference, copied from above (set 2):
Strand	fitted relative affinity
GACGGTTGCCTTTTCCTGACGTGCTAG	0.317 z-score
TTAGAACTGGGGGATCGATTAGTGCTA	1.44 z-score
TCATTTCTCCTTTGTAAACTGTGCTAG	1.18 z-score
GACCATTTCAGTTTCGAGACGTGCTAG	5.26 z-score
TTAGGTTTCGGGTATCGGTCAGTGCTA	11.2 z-score
GACGTTTTCGGACTGGGGACGTGCTAG	0.684 z-score
GCACCTCTAGACTCTAAATTCGTGCTA	-0.0296 z-score
GACGCTATCAGACTGGAGACGTGCTAG	-0.109 z-score
